Measured values of several laboratories.
Each numbered part is a random draw from the data of one study; scales do not carry over between parts. Substitutions count along the parent as printed.

Set 1 — technique: protein binding microarray; form: double-stranded DNA, one strand shown; matrix: in vitro; tested at: not given; baseline: not given; direction: higher = stronger binding
Target: Histone acetyltransferase KAT6A, winged helix 2, GST fusion (KAT6A, Homo sapiens, UniProt Q92794, residues 85-181)
Setting: 8-mer, flanks averaged, mean of 2 arrays, mostly near background
Construct (chain): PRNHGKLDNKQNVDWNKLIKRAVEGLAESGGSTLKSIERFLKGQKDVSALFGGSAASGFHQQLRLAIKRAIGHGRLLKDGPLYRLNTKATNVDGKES
Oligonucleotide	E-score
CTCAAACC	0.0686
CACACACA	-0.0341
CTCAGACC	-0.0038
CCGACTAA	-0.145
AGCACCTG	0.193
ACACAAGG	-0.0334
ATGGAAAT	-0.02
CCCCAGCG	0.107
GCAGGCCA	0.238
CGTCCGCC	0.193
AAGACATT	-0.15
CTATAACA	-0.0611
CCTTCATA	0.0266
ATAGTAGG	-0.0845
GCGCTTAA	-0.0872
AAGCGACT	-0.012
CCCAGACA	-0.0247

Set 2 — technique: protein-binding microarray; form: double-stranded DNA, one strand shown; matrix: in vitro; tested at: 250 nM; setting: 60-bp whole probe; together with: salmon DNA 0.4 mg/ml; baseline: random background probes; direction: higher = stronger binding; all sequences stand within: GCCTAGCAC … GTCTTGATTCGCTTGACGCTGCTG
Target: Interferon regulatory factor 7, full length, phosphomimetic (IRF7, Homo sapiens, UniProt Q92985, residues 1-503, S101K/S471D/S472D/S475D/S476D/S477D/S483D/S484D/S487D)
Chain of UniProt Q92985 (whole entry, unmodified, looked up): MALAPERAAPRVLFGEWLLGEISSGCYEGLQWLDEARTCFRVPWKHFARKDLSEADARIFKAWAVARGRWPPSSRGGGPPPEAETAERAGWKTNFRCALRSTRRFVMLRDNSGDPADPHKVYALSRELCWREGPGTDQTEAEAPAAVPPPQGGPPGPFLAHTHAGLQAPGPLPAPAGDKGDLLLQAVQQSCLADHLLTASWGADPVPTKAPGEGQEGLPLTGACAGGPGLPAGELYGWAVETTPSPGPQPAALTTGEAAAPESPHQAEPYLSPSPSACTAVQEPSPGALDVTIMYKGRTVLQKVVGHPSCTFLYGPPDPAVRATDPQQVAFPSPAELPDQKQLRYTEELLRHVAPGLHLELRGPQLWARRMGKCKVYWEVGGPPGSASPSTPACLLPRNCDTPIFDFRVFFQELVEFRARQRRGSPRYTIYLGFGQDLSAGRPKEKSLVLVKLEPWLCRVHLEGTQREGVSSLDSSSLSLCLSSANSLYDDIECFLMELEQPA
Oligonucleotide	log fluorescence
GACGATCTCAGTCTAGAGACGTGCTAG	-0.308 z-score
TCATGTTTCCATTTTCTACTGTGCTAG	3.87 z-score
GACGGTATCCCACTGCTGACGTGCTAG	-0.227 z-score
TTTACTTTCTGAATGCTCCCGTGCTAG	1.65 z-score
GACGGTTCCCTATTCCTGACGTGCTAG	2.18 z-score
TTAGGCCTCGGTCTCGGTTAGTGCTAG	2.08 z-score
TTGGGTTTCGGTCTCGGTTAGTGCTAG	7.04 z-score
CAGAAGTTCATGTTCAACCAGTGCTAG	-0.455 z-score
GACGGTATCCTGCTGCTGACGTGCTAG	-0.402 z-score
TCAGCATTGCTTCTATAACTGTGCTAG	-0.403 z-score
TTAGATATCGGGACGGGATTAGTGCTA	0.231 z-score
AACTCTTTGCAGATAAATACGTGCTAG	0.0778 z-score
GCCATTGTGGATCTTGCAGAGTGCTAG	-0.555 z-score
TCATGTCTGGGATGTAATACTGTGCTA	-0.142 z-score
GACGATCTCAGTCTCGAGACGTGCTAG	0.348 z-score
TTAGGACTGGGACTGGGTAAGTGCTAG	-0.224 z-score
TCAACATTGTGCAATCTTACTGTGCTA	-0.0242 z-score
GTTAGTGGGATGGCTGTGGTGTGCTAG	-1.19 z-score
TCAGGTTTCGGGACTGGGTTAGTGCTA	4.33 z-score
TGTTATTAAATTTTCACGGTGTGCTAG	0.451 z-score
TCATTTCTGAATGTCTTACTGTGCTAG	1.18 z-score
TTACGTTTCGGTATCGGTTAGTGCTAG	5.65 z-score
GACGATTTCAGTTTCCAGACGTGCTAG	1.65 z-score
CCTTGCATGTTTTTGACAAAGTGCTAG	-0.152 z-score

Set 3 — technique: RNA Bind-n-Seq; form: RNA; matrix: in vitro; tested at: 100 nM; setting: RNA with constant flanks, ends assumed; baseline: input RNA pool; direction: higher = stronger binding
Target: RING finger protein unkempt homolog, zinc fingers 1-6, SBP tag (UNK, Homo sapiens, UniProt Q9C0B0, residues 30-357)
Chain of UniProt Q9C0B0 (30-357, looked up): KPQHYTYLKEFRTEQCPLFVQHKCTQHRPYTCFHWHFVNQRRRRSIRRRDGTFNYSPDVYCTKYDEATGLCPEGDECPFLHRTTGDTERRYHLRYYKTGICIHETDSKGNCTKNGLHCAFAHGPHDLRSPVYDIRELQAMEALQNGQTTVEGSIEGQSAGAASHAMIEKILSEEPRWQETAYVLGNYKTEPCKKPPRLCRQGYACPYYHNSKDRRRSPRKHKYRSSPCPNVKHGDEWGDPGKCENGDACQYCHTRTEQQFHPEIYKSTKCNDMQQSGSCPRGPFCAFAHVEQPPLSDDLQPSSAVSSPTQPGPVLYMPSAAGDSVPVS
Oligonucleotide	bound/input enrichment [ratio]
GGGAGUUCUACAGUCCGACGAUCAGGGAUGGCCCCCAAUCCCACCUCUGUUUAUUCUGUAAACUGCAACCUAUAAAUAACCUUCCGCAUUCCUAUUGUAACAAAAUUAAUUUUUAUGAAAUAAAUUAUAUUUCCCCGUCUAAUCAACAGAGGAUUGAGCAUCA	0.516
GGGAGUUCUACAGUCCGACGAUCAGGAAAUGCUGGCUGCAAACCCUCAGGAUCGUCCAGAUGCUUUUGAACCCGAACUCAGAUCCGUACAAAUUGCAUUUAAAGACCGCAGCUGGGAAACGUGACACAUAUUAUUUGCAAAUACAACAGAGGAUUGAGCAUCA	0.366
GGGAGUUCUACAGUCCGACGAUCUCCCAGCACUUUGAUAAAAAGUGUGGACUGGUUGCUUGUAUUUUCCUUAUUCUUUUUAAUCCGUUUUAUUAUGUAUGCUACCAUUCGAACUGAGAGUAUUCGGUGGCUAAUUCCAGGACACAACAGAGGAUUGAGCAUCA	0.979
GGGAGUUCUACAGUCCGACGAUCCAGUUCCGAUAUUCUUUUUAUUUUUUUUCUUUUCCCUCAAUCCUUUUUUAUUUUUAAAAACCGUUCUUUUGUAAUGUGGUGUUCAAAACGGAAUUGAAAACUGGCACCCCAUCUCUUUGACAACAGAGGAUUGAGCAUCA	1.58

Set 4 — technique: universal PBM; form: double-stranded DNA, one strand shown; matrix: in vitro; tested at: 600 nM; direction: higher = stronger binding
Target: Sal-like protein 4, full length isoform A (SALL4, Homo sapiens, UniProt Q9UJQ4, residues 1-1053)
Chain of UniProt Q9UJQ4 (whole entry, looked up): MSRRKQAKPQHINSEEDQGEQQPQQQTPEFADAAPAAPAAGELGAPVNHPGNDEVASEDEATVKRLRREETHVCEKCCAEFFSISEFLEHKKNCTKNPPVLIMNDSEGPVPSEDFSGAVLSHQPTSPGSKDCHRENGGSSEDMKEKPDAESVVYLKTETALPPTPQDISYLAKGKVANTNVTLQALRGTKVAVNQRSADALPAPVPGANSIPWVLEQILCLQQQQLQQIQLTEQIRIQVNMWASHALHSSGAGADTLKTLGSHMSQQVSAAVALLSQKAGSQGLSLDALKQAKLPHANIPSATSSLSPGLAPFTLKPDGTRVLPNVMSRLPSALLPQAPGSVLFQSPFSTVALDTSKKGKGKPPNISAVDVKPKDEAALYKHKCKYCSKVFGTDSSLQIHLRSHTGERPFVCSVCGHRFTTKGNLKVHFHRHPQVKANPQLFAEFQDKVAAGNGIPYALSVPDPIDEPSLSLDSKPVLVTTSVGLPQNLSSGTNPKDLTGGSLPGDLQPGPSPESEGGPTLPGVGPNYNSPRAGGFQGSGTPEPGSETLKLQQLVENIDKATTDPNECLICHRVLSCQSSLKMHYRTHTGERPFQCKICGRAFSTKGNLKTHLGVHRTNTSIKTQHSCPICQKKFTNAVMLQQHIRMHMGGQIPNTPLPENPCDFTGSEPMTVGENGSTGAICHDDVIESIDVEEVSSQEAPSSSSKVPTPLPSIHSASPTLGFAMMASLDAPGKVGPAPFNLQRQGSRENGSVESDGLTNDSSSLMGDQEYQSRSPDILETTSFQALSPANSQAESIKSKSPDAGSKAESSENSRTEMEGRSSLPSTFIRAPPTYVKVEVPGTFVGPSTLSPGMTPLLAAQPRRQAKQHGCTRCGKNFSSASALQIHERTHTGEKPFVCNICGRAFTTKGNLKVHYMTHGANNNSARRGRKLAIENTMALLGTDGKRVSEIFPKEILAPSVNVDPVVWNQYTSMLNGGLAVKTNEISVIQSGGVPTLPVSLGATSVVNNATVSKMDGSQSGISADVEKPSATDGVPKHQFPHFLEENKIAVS
Setting: 8-mer, flanks averaged, mean of replicates
Oligonucleotide	E-score
CAAAGATA	0.198
GGAAACCC	-0.235
CCGTCTTA	-0.0908
ATAGTTGA	0.311
ATGCCTGC	-0.0904
AGCCACTA	-0.00843
CAAATGGA	0.103
CATGCAAA	0.148
CCAGGTAA	-0.0126
AGGTGACA	0.036
CAGTTTAC	0.0347
CCGCGGCC	-0.407
ATCCTGTG	0.0174
CTCGAAAG	-0.0953
TAGGCGCA	-0.168
CGGGCTAA	-0.224
GCGCCTGA	-0.272
GCGCGTGA	-0.164
CCTAGAAC	-0.156
ATCTGCTA	0.126
CCGCACTC	-0.245
ACCGCAGT	-0.0538
AGGTGCCA	-0.196
GAGATCAA	0.108
CCCCCAAC	-0.322

Set 5 — target: CCNE2, cyclin fold, Cln2 fusion (human); technique: yeast growth competition, sequencing; matrix: yeast; setting: weak parent motif; baseline: not given; direction: higher = stronger binding
Starting sequence: FOXM1 docking peptide (human); PHLARPIKVESPP
Variant	normalised enrichment score
PHAARPIKVESPP [L3A]	0.277
PHLARPAKVESPP [I7A]	-0.482
PHLARPIKAESPP [V9A]	-0.0783
PHLAAPIKVESPP [R5A]	-0.564
PHLARPIKVASPP [E10A]	-0.327
AHLARPIKVESPP [P1A]	-0.484

Some of these lines once more (set 3):
Oligonucleotide	bound/input enrichment [ratio]
GGGAGUUCUACAGUCCGACGAUCAGGGAUGGCCCCCAAUCCCACCUCUGUUUAUUCUGUAAACUGCAACCUAUAAAUAACCUUCCGCAUUCCUAUUGUAACAAAAUUAAUUUUUAUGAAAUAAAUUAUAUUUCCCCGUCUAAUCAACAGAGGAUUGAGCAUCA	0.516
GGGAGUUCUACAGUCCGACGAUCAGGAAAUGCUGGCUGCAAACCCUCAGGAUCGUCCAGAUGCUUUUGAACCCGAACUCAGAUCCGUACAAAUUGCAUUUAAAGACCGCAGCUGGGAAACGUGACACAUAUUAUUUGCAAAUACAACAGAGGAUUGAGCAUCA	0.366
GGGAGUUCUACAGUCCGACGAUCUCCCAGCACUUUGAUAAAAAGUGUGGACUGGUUGCUUGUAUUUUCCUUAUUCUUUUUAAUCCGUUUUAUUAUGUAUGCUACCAUUCGAACUGAGAGUAUUCGGUGGCUAAUUCCAGGACACAACAGAGGAUUGAGCAUCA	0.979
GGGAGUUCUACAGUCCGACGAUCCAGUUCCGAUAUUCUUUUUAUUUUUUUUCUUUUCCCUCAAUCCUUUUUUAUUUUUAAAAACCGUUCUUUUGUAAUGUGGUGUUCAAAACGGAAUUGAAAACUGGCACCCCAUCUCUUUGACAACAGAGGAUUGAGCAUCA	1.58
